Experimental data pooled from the literature.
Compare with care: the assays were run in different laboratories. ± marks the error that the study gave.
Organism: SARS-CoV-2

The EC50 of Cc1ccc(CNC(=O)c2cc(F)cc(Br)c2)cc1C(=O)N[C@H](C)c1cccc2ccccc12 is reported as 65.1 ± 2.6 µM (viral replication; Vero C1008, WK-521 ancestral Wuhan).
With N#Cc1ccccc1C[C@@H](N)C(=O)N[C@H](Cc1ccc(Cl)cc1Cl)C(=O)N[C@H](CC(=O)Nc1nnc(N)[nH]1)Cc1ccc(F)cc1 the EC50 was greater than 10 µM (viral replication; USA-WA1/2020; 24 h).
The EC50 of C[C@@H]1O[C@@H](n2c3ccccc3c3c4c(c5c6ccccc6[nH]c5c32)CNC4=O)C[C@@H](N)[C@H]1O is reported as 0.28 µM (viral replication; mNeonGreen reporter).
The EC50 of Cc1cncc(C(=O)N2CCC(=C3c4ccccc4CS(=O)(=O)c4ccccc43)CC2)c1 is reported as 0.042 µM (viral replication; USA-WA1/2020).
For CNC(=O)C[C@H](Cc1ccc(F)cc1)NC(=O)[C@@H](Cc1ccc(F)cc1F)NC(=O)[C@H](N)Cc1ccccc1C#N, the EC50 was 2 µM (viral replication; USA-WA1/2020; 24 h).
Nc1ncnc2c1ncn2[C@@H]1O[C@H](CSCc2cccc(C(=O)O)c2)[C@@H](O)[C@H]1O has an EC50 of greater than 200 µM (viral replication, N protein immunofluorescence; Calu-3; 24 h).
The EC50 of Cc1ccc(CNC(=O)c2cccc(C(F)(F)F)c2Cl)cc1C(=O)N[C@H](C)c1cccc2ccccc12 is reported as greater than 100 µM (viral replication; Vero C1008, WK-521 ancestral Wuhan).
Cc1cccc(F)c1NC(=O)CN1CCCC2=CC3CC(CN4CCCCC34)C21 (stereo not shown) has an EC50 of greater than 267 µM (pseudovirus entry; pseudovirus).
The EC50 of CNC(=O)C[C@H](Cc1ccc(F)cc1)NC(=O)[C@@H](Cc1ccc(Cl)cc1Cl)NC(=O)[C@H](N)Cc1ccccc1[N+](=O)[O-] is reported as 4 µM (viral replication; USA-WA1/2020; 24 h).
Cc1ccc(OCCN(C)C)cc1C(=O)N[C@H](C)c1cc(-c2cnn(C)c2)cc(-c2cnn(CC(F)(F)F)c2)c1 gave an EC50 of 0.5 µM (viral replication; Caco-2, icSARS-CoV-2-nLuc reporter).
For CN(C)c1ccc(N(Cc2cc(Cl)cs2)C(=O)Cc2cncc3ccccc23)cc1, the EC50 was 0.2 µM (dsRNA staining; Caco-2, Omicron XBB.1.5).
The EC50 of CN(C)CCCCNC(=O)C[C@H](Cc1ccc(F)cc1)NC(=O)[C@@H](Cc1ccc(Cl)cc1Cl)NC(=O)[C@@H](N)Cc1ccccc1C#N is reported as greater than 10 µM (viral replication; USA-WA1/2020; 24 h).
CCc1cccc2c(C(=O)NC3CCN(C(=O)C(C)C)CC3)c[nH]c12 gave an EC50 of greater than 100 µM (viral replication).
Cc1ccc(N)cc1C(=O)N[C@H](C)c1cccc2ccccc12 has an EC50 of greater than 20 µM (viral replication; Caco-2, icSARS-CoV-2-nLuc reporter).
CO/C1=C\C(C)=C\[C@@H](C)[C@@H](O)[C@@H](C)C/C(C)=C/C=C/[C@H](OC)[C@@H]([C@@H](C)[C@@H](O)[C@H](C)C(=O)/C=C/[C@H](C)[C@H](O)C(C)C)OC1=O gave an EC50 of 0.002 µM (viral replication, measured: nucleocapsid protein; Calu-3, Delta B.1.617.2).
CCOC(=O)Cn1[se]c2ccccc2c1=O has an EC50 of 24 µM (viral replication, RT-qPCR; Vero; 48 h).
CC(C)C[C@@H]1NC(=O)[C@H](C(C)C)NC(=O)[C@H](C)NC(=O)[C@H](Cc2ccc(O)cc2)NC(=O)[C@H](CCC(N)=O)NC(=O)[C@H](CC(C)C)NC(=O)[C@@H](Cc2ccc(O)cc2)NC(=O)CSC[C@@H](C(N)=O)NC(=O)[C@H](CCC(=O)O)NC(=O)[C@H](CCCNC(=N)N)NC(=O)[C@H](CCCNC(=N)N)NC(=O)[C@H](CCCCN)NC(=O)[C@H](Cc2c[nH]cn2)NC(=O)[C@H](CCCNC(=N)N)NC1=O has an EC50 of greater than 50 µM (viral replication).
For Cc1ccc(N2CC(N3CCC(C)(O)CC3)C2)cc1C(=O)NC1(c2ccc3c4c(cccc24)C(=O)N3C)CC1, the EC50 was 0.035 µM (viral replication; Vero C1008, wild type).
With O=C(NC12CC3CC(CC(C3)C1)C2)N1CCCC2=CC3CC(CN4CCCCC34)C21 (stereo not shown) the EC50 was 52.9 µM (pseudovirus entry; pseudovirus).
The EC50 of CCn1ccc(-c2cc(-c3cnn(C)c3)cc([C@@H](C)NC(=O)c3cc(OCCN(C)C)ccc3C)c2)n1 is reported as 3 µM (viral replication, plaque; recombinant E167G).
CC(=O)N(CCCc1cn(-c2ccc(CN3CCOCC3)cc2)nn1)CCNc1ccnc2cc(Cl)ccc12 gave an EC50 of 15.9 ± 14.1 µM (viral replication; Caco-2; 30 h).
For CC(C)(C)[C@H](NC(=O)C(F)F)C(=O)N1C[C@H]2[C@@H]([C@H]1C(=O)N[C@H](C#N)C[C@@H]1CCCNC1=O)C2(C)C, the EC50 was 0.1 µM (viral replication; Canada/VIDO 01/2020; added: efflux inhibitor CP-100356).
Cc1ccc(CNC(=O)c2cccc(I)c2)cc1C(=O)N[C@H](C)c1cccc2ccccc12 gave an EC50 of greater than 100 µM (viral replication; Vero C1008, WK-521 ancestral Wuhan).
With Cc1cc(C)nc(Sc2nc3sccn3c2[N+](=O)[O-])n1 the EC50 was greater than 100 µM (viral replication).
The EC50 of COC(=O)c1cc2c(=O)n3ccccc3nc2n1Cc1ccccc1 is reported as 22.1 ± 1.01 µM (viral replication, qPCR; Vero E6).
CC(=O)[C@@]1(O)CC[C@H]2[C@@H]3CCC4=CC(=O)CC[C@]4(C)[C@H]3CC[C@@]21C gave an EC50 of 2.77 ± 0.49 µM (viral replication, plaque).
The EC50 of CC(NC(=O)C(Cc1ccccc1)NC(=O)OCc1ccccc1)C(=O)CF (stereo not shown) is reported as 0.13 µM (virus-induced cytopathic effect; Vero E6, USA-WA1/2020; 72 h).
With C[C@](C(=O)NC1CCOCC1)(c1cncnc1)N(C(=O)[C@H](F)Cl)c1ccc(OC(F)(F)Cl)cc1 the EC50 was 0.04 µM (viral replication; Vero C1008, BA.5).
CNC(=O)C[C@H](Cc1ccc(F)cc1)NC(=O)[C@@H](Cc1ccc(Cl)cc1Cl)NC(=O)[C@@H](Cc1ccccc1C#N)NC(=O)OC(C)(C)C has an EC50 of greater than 10 µM (viral replication; USA-WA1/2020; 24 h).
For CC(C)C[C@H](NC(=O)c1cc2c(F)ccc(F)c2[nH]1)C(=O)N[C@@H](C[C@@H]1CCNC1=O)C(=O)c1nc2c(F)cccc2s1, the EC50 was 0.4 ± 0.09 µM (viral replication, RT-qPCR; VeroE6, WK-521).
The EC50 of CN(C)S(=O)(=O)c1ccc2c(c1)N(CCCN1CCC(CCO)CC1)c1ccccc1S2 is reported as 13.8 µM (viral replication, GFP plate reader screen; cell-based).
COc1ccc(-c2cnc3c(C#Cc4cccnc4)snc3c2)cc1OC has an EC50 of 0.13 µM (viral replication; USA-WA1/2020).
For O=C(c1ccc(Cl)cc1)N1CCCC2=CC3CC(CN4CCCCC34)C21 (stereo not shown), the EC50 was 236 µM (pseudovirus entry; pseudovirus).
The EC50 of Cc1ccc(OCCN(C)C)cc1C(=O)N[C@H](C)c1cc(-c2cnn(C)c2)cc(-c2cnn(C(C)C)c2)c1 is reported as 0.45 µM (viral replication; Caco-2, icSARS-CoV-2-nLuc reporter).
The EC50 of N#Cc1ccccc1CC(N)C(=O)NC(Cc1ccc(Cl)cc1Cl)C(=O)NC(CC(=O)NCCc1ccccc1)Cc1ccc(F)cc1 (stereo not shown) is reported as 0.3 µM (viral replication; USA-WA1/2020; 24 h).
Cc1ccc(CNC(=O)c2cccc(Br)c2)cc1C(=O)N[C@H](C)c1cccc2ccccc12 has an EC50 of greater than 100 µM (viral replication; Vero C1008, WK-521 ancestral Wuhan).
O=CN(CCCc1cn(-c2ccc(CN3CCOCC3)cc2)nn1)CCNc1ccnc2cc(Cl)ccc12 gave an EC50 of 22.9 ± 12.4 µM (viral replication; Caco-2; 30 h).
The EC50 of C[C@H](c1cccc2ccccc12)N(C)Cc1ccc2[nH]ncc2c1 is reported as no more than 10 µM (viral replication; Vero E6, USA-WA1/2020; 24 h).
COC(=O)Cn1[se]c2ccccc2c1=O has an EC50 of 15 µM (viral replication, RT-qPCR; Vero; 48 h).
With N#Cc1ccccc1CC(N)C(=O)NC(Cc1ccc(Cl)cc1Cl)C(=O)NC(CC(=O)NCCCc1cccnc1)Cc1ccc(F)cc1 (stereo not shown) the EC50 was 0.3 µM (viral replication; USA-WA1/2020; 24 h).
The EC50 of O=C1C(O)=C(Nc2cccc(C(F)(F)F)c2)C(=O)c2ccccc21 is reported as 1.5 ± 0.2 µM (viral replication; Calu-3; 48 h).
With COc1ccc(CCCCCCCCC(=O)c2c(OC)cccc2OC)cc1OC the EC50 was 6 µM (MTT; Vero E6/TMPRSS2, WK-521 ancestral).
With O=C(CNc1cccc(F)c1)N1CCCC2=CC3CC(CN4CCCCC34)C21 (stereo not shown) the EC50 was 144 µM (pseudovirus entry; pseudovirus).
With Cc1ccc(CN)cc1C(=O)N[C@H](C)c1cccc2ccccc12 the EC50 was 15.9 ± 1.3 µM (viral replication; Vero C1008, WK-521 ancestral Wuhan).
With CC(=O)OC1(C)CC(C=C(C)CCC=C(C)C)OC2(C=C(CO)C3CC(=O)C(C)=CC3O2)C1 (stereo not shown) the EC50 was 0.106 µM (viral replication; Calu-3, mNeonGreen reporter).
With CC(C)(C)[C@H](NC(=O)C(F)(F)F)C(=O)N1C[C@H]2[C@@H]([C@H]1C(=O)N[C@H](C#N)C[C@@H]1CCNC1=O)C2(C)C the EC50 was 0.5 µM (viral replication, dsRNA staining; Calu-3, Omicron BQ.1.1).
The EC50 of CC1(C)C=Cc2c(ccc(C3COc4cc(O)cc(O)c4C3=O)c2O)O1 (stereo not shown) is reported as 20.3 ± 1.98 µM (viral replication, qRT-PCR; Vero E6 cells, WIV04; 24 h).
For C1=C2CCCN(Cc3ccccc3)C2C2CC1C1CCCCN1C2 (stereo not shown), the EC50 was 163 µM (pseudovirus entry; pseudovirus).
With Cc1ccc(N)cc1CN(C)[C@H](C)c1cccc2ccccc12 the EC50 was 25.2 µM (viral replication; Vero E6, USA-WA1/2020; 24 h).
Cc1ccc(N2CCN(C)CC2)cc1C(=O)NC1(c2ccc3c4c(cccc24)CC3)CC1 has an EC50 of 0.4 µM (viral replication; Vero C1008, wild type).
With O=S(=O)(c1ccc(Cl)c(Cl)c1)N1CCCC2=CC3CC(CN4CCCCC34)C21 (stereo not shown) the EC50 was 137 µM (pseudovirus entry; pseudovirus).
Oc1c(Br)cc(Br)c2cccnc12 gave an EC50 of 4.59 µM (viral replication, immunofluorescence; Vero E6, wild type; 24 h).

Excerpt of the above:
For O=C(c1ccc(Cl)cc1)N1CCCC2=CC3CC(CN4CCCCC34)C21 (stereo not shown), the EC50 was 236 µM (pseudovirus entry; pseudovirus).
The EC50 of N#Cc1ccccc1CC(N)C(=O)NC(Cc1ccc(Cl)cc1Cl)C(=O)NC(CC(=O)NCCc1ccccc1)Cc1ccc(F)cc1 (stereo not shown) is reported as 0.3 µM (viral replication; USA-WA1/2020; 24 h).
Cc1ccc(N)cc1C(=O)N[C@H](C)c1cccc2ccccc12 has an EC50 of greater than 20 µM (viral replication; Caco-2, icSARS-CoV-2-nLuc reporter).
For Cc1ccc(N2CC(N3CCC(C)(O)CC3)C2)cc1C(=O)NC1(c2ccc3c4c(cccc24)C(=O)N3C)CC1, the EC50 was 0.035 µM (viral replication; Vero C1008, wild type).
CCOC(=O)Cn1[se]c2ccccc2c1=O has an EC50 of 24 µM (viral replication, RT-qPCR; Vero; 48 h).
The EC50 of C[C@H](c1cccc2ccccc12)N(C)Cc1ccc2[nH]ncc2c1 is reported as no more than 10 µM (viral replication; Vero E6, USA-WA1/2020; 24 h).
With Cc1ccc(CN)cc1C(=O)N[C@H](C)c1cccc2ccccc12 the EC50 was 15.9 ± 1.3 µM (viral replication; Vero C1008, WK-521 ancestral Wuhan).
For C1=C2CCCN(Cc3ccccc3)C2C2CC1C1CCCCN1C2 (stereo not shown), the EC50 was 163 µM (pseudovirus entry; pseudovirus).
